Published values of several laboratories.
Every numbered part comes from another study and shows a few of its results, in no order. Substitutions count along the parent as printed.

Sample 1 — technique: RNA Bind-n-Seq; molecule type: RNA; medium: in vitro; concentration: 365 nM; relative to: no-protein control; reading: higher = stronger binding
Target: RNA binding protein fox-1 homolog 2, RRM domain, GST-SBP tag (RBFOX2, Homo sapiens, UniProt O43251-10, residues 100-194)
Setting: natural RNA segment, single round, ends assumed
Shared flanks, not repeated: GGGAGUUCUACAGUCCGACGAUC … UGGAAUUCUCGGGUGCCAA
Target sequence (chain): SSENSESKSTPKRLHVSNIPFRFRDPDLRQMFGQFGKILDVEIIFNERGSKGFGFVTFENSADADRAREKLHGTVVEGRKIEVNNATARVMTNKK
Strand	RBNS enrichment (R)
UUGAUGGCAAAAAAAAAAAAGCGACUUCGAGUUUGCUCCCCUUUGCUUGAAGAGACCCCCUCCCCCUUCCAACGAGCUUCCGGACUUGUCUGCACCCCCAGCAAGAAGGC	0.843
UUGCCAGUUUGAAGACUGUUCUCCUAAAGUGUUCAACCUGCACUUCUUACAACCAAGGUAGUUUGUAUCAUUUUCAAAAGUACACAUUAUUAGGGUCUAGUUGCCCCUGG	0.268
GGGUACUGUGUGUGCACAUAGACACACUUACGUGGAAUUACAGUUGUGGGUUUAUCCAAGAUGAGGAAGAUUUCACCUGCUGUUUAAUAGACUUGGGGCCAUGUGCCUCC	0.401
ACGGGUUACUAAGAUGAAAUUGCCAAAAAAAUUUAUAAACUAAUUUUGUACGUAUGAAUGAUAUCUUUGACCUCAAUGGAGGUUUGCAAAGACUGAGUGUUCAAACUACU	0.466
UGUAUCUACUUAGCCAGAUGCUUGGCCUGGUGGGACCAGGGCUCCACAGAGGCCACAAAAUGUUGCAAGUCAUGAUGGAUGGAAAUAUGUUCUAACAGCAUCUGCCUCUA	4.09
AUCACAGAUGCCAUUUCUGUUUUAUUGAUGAUUAUAUGAGACUUUUAAUACAUAAAUGAACGGGUACUGGUGCCUCUUUAUUUUUAAAAAUUUGAAGAAAAAGAGCCACC	0.466
CCAUCUUUUAGGAUGGGCCCCCAGGAGACUGAGGUCUUCCUGGGCCCUCAUUGCUGCUUAUCGUACCCCCCAUCACCUGCACAUGGGACAGACCGGGCUGGAGGGUGACC	0.66
GGCUACCUAAGGUUAACAUGUCACUAGAGUAUUUUUAUGAGAGACAAACAUUAUAAAAAUCUGAUGGCAAAAGCAAAACAAAAUGGAAAGUAGGGGAGGUGGAUGUGACA	0.576
AAGGUGUGGUUCUCAGUGCCUGUCAUUGAUGUGUGUUCCCGUGCCCAGGCUGUCUCAGUGUCAUCAUGUUGCCAGGUCUUUGUGUUUCUGCAGCCCACAUGAUCCUUGAG	0.355
AGGGAGCCCCUGAGCCCCAACCUUCCCCUGCCUCAGCCUUUGAUUGUCCAGGGUGAAGCUGUGGGAGAACCGCCUGGGCUACCAGUCAGAGCUGGUCUUUGGGCUGUGUU	1.66
AUCUUUGUUAAGUUUCAUGAUGUGUUAGUACACUGUUCUAUUGCUGUAAAGAGACACCAUGACAAAGACAACUCAUAUAAAAGGAAGUGUUGAGUUGGGGGCUUGCUUAU	0.416
UGUUUGUACUUGAGGUAUGUAACAUUUGUAUACCUGAACUUAUUUUAAAGAUGAACUGAAAUGCACAUAGCCAAGUCUUGAGAUACAAGAUUGAAUGUGUAUUUCUUAAA	0.431

Sample 2 — target: CCNE2, cyclin fold, Cln2 fusion (human); technique: yeast growth competition, sequencing; medium: yeast; setting: strong parent motif; relative to: not given; reading: higher = stronger binding
Starting sequence: ANKRD17 docking peptide (human); PSVRRQLFVTVVK; partner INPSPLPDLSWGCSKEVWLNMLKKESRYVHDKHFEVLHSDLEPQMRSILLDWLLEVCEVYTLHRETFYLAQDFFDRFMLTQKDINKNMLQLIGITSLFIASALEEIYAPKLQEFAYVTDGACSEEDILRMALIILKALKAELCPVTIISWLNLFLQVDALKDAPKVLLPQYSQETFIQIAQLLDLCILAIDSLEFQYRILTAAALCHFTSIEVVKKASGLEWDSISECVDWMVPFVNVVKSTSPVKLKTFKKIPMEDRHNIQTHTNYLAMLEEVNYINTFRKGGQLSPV
Variant	normalised enrichment score
R5K F8L	1.47
F8A	1.06
R5A L7A	0.419
S2A	3.67
L7A	1.55
V11A	4.61
T10A	4.08
P1A	3.63
R5K	0.98
V9A	3.41

Sample 3 — technique: RNA Bind-n-Seq; molecule type: RNA; medium: in vitro; concentration: not given; relative to: input RNA pool; reading: higher = stronger binding
Target: RING finger protein unkempt homolog, zinc fingers 1-6, GST-SBP tag (UNK, Homo sapiens, UniProt Q9C0B0, residues 30-357)
UniProt Q9C0B0, sequence (30-357, looked up): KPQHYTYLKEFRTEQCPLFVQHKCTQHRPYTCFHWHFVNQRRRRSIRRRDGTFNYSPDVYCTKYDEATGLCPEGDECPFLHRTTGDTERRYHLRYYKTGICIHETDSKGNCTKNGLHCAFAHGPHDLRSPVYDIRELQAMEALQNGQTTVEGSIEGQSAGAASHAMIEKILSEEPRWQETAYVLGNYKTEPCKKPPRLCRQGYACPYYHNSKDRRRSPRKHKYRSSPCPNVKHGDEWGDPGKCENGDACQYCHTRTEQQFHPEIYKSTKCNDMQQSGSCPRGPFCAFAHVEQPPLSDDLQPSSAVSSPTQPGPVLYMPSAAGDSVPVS
Setting: RNA with constant flanks, human and mouse sites, ends assumed
Shared flanks, not repeated: GGGAGUUCUACAGUCCGACGAUC … CAACAGAGGAUUGAGCAUCA
Strand	bound/input enrichment [ratio]
GAGCAGUCCUUGGAAACUGCGAAAGCAGUGAAGGAACGCUACAGUUAUGUCUGCCCAGAUUUAGUAAAAGAGUUUAACAAGUAUGACACCGAUGGGUCAAAGUGGAUCAAACAGUACACC	1.32
AAUUUGUUGUCUGCAAGCAAAUUAUAUAAUAAUAUUACCUUCGAAGAACUUGGAGCUCUUUUAGAGAUCCCUGCAGCUAAGGCGGAAAAGAUAGCAUCUCAAAUGAUAACCGAAGGACGU	1.61
GAUGCCCGAGAUUCCUUGGUCAAGUUUUUUGGGCCUCUCAGUUCAAACACACUCCACCAGGUGGCAUCAUACCUCUGCCUCUUGCCAACGCUCCCUAAAAAUGAAGACACAACUUUUGAU	0.241
GAGAAGGAAUGGAAACUAGGCCGGUGCAUUUUACGGUUCCCUGAGAUUCUGCAAAAGAUUUUAGAUGACUUAUUUCUCCACACUCUCUGUGAUUAUAUAUAUGAGCUGGCAACUGCUUUC	0.446
GCAGGGGCUCUCACACAUAUUUUCUUACUUAAACCUCCUCACAACUCUGAAGUAGAUGUAUUAUCCCUGGUUCUAUGAAUGAGAACAUUGGCCCAGAGAGGAUGACCCAGGUCUUGUAGU	0.402
UGCCUUGCUUUCCACCCAACAGAACAGAUCCUGGCUUCUGGUUCAAGGGAUUAUACUCUUAAAUUAUUUGAUUAUUCCAAACCAUCAGCAAAAAGAGCCUUCAAAUACAUUCAGGAAGCU	0.392
GUGUGGCGCGGGGCGGUGCGUGACUACCAGGAGCGCGUGGCUCACAUGGAGAGCUCGCUGGGCCAGGCCCGCGAGCGUCUGGGCCAAGCCGUGCGGGGCGCUCGGGAGAGUCGCUUAGAG	0.118
GAUUGUUGAAUUGCCAAAGAGUUUGGUUCACGAGCUGAAGCUCCCAUUCCAUGGAUCCCUUGGGUGCACCUUCCCAGUUUGUGGAUGUGGAUACCCUGCUAAGCUGGGGCGACUCGUACG	0.263
GAAGAUUUCCUGAAAAAAUGGGAGACCCCUUCUCAGAAUACAGCCCAGUUGGAUCAGUUUGAUAGAAUCAAGACCCUUGGCACCGGCUCCUUUGGGCGAGUGAUGCUGGUGAAGCACAAG	0.447
GUCAUUGUCAUUCCGCAGUCCUCUCUCUCCACCAAUGCUGUUGUGGUGGAUCUUGGGCUAAUUAGAGUUCACAAUCGGUUCAGUCUGGUGUCUGGAGAAGACACUGCAAAUCCUCCAGUG	0.266
AAGCCAAUUCAGAACUUCAUUGAAACUGACACUACAGAAGCUGUAGGAAAUGUAUGUCAGCUAGCACAAGCAGAGCACAUAUUAAAAUCCUGUCCAUUUCGGAGCCCUAUUCCAAUCUGG	0.314

Sample 4 — technique: protein binding microarray; molecule type: double-stranded DNA, one strand shown; medium: in vitro; concentration: not given; relative to: not given; reading: higher = stronger binding
Target: Histone acetyltransferase KAT6A, winged helix 2, GST fusion (KAT6A, Homo sapiens, UniProt Q92794, residues 85-181)
Setting: 8-mer, flanks averaged, mean of 2 arrays, mostly near background
Target sequence (chain): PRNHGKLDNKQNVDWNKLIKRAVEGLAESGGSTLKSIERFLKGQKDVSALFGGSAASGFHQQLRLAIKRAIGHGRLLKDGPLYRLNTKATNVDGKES
Strand	E-score
AGATCTTG	-0.116
TGAAAGCA	0.158
ATAAAAAA	0.0698
ACGCAACG	0.184
AAGAAGAT	0.153
ACTCTCAC	-0.0516
ATGTCATA	-0.234
GCTAAAGC	0.0584
CTGACGTC	-0.000325
AGGGGGAG	0.0479
ACGTTAAT	-0.00105
GGGACTCA	-0.0944
GAGACTCC	-0.0493
GCAATGCC	0.00677
TAGAGGGA	0.0146
GGAACTCC	0.0679
GGATATTA	-0.0465
GCCCGCTA	0.025

Sample 5 — technique: RNA Bind-n-Seq; molecule type: RNA; medium: in vitro; concentration: 200 nM; setting: whole 134-nt RNA, ends assumed; together with: 150 mM LiCl; relative to: input library; reading: higher = stronger binding; all molecules: 7-deaza-guanosine replaces G
Target: Ras GTPase-activating protein-binding protein 1, full length (G3BP1, Homo sapiens, UniProt Q13283)
UniProt Q13283, sequence (whole entry, looked up): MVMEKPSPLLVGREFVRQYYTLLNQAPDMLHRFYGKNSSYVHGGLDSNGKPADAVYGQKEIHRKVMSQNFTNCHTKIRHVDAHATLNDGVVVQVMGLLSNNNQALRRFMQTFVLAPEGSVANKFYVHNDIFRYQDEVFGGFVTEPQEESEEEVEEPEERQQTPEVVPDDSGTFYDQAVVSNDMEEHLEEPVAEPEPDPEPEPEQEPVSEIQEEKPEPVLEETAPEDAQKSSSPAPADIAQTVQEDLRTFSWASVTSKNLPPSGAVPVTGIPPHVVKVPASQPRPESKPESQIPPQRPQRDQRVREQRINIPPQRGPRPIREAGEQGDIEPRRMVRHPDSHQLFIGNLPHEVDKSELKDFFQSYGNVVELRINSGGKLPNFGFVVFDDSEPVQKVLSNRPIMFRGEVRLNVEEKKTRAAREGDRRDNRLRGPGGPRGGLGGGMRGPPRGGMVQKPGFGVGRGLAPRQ
Shared flanks, not repeated: GGGAGUUCUACAGUCCGACGAUC … UGGAAUUCUCGGGUGUCAAGG
Strand	log2 enrichment
CUGUGCUACACAUCGUAUGUACCGAAUCGGAAAAAAAGGGAAAAAAAGGGAAAAAAAGGGGAAAGUAUUAUGUUACGCCGUUCGGAUCUG	-0.146
CCUGUGCUACACAUCGUAUGUACCGAAUCGGGCCCCCCCGGGGCCCCCCCGGCCCCCCCGGAAAGUAUUAUGUUACGCCGUUCGGAUCUG	0.175
UCCUGUGCUACACAUCGUAUGUACCGAAUCGGGGUUUUUUUGGGGUGGGGUUUUUGGGGAAAGUAUUAUGUUACGCCGUUCGGAUCUGCA	-0.744
AGUCCUGUGCUACACAUCGUAUGUACCGAAUCGGUUUUUGGUUUUUUUGGUUUUUGGAAAGUAUUAUGUUACGCCGUUCGGAUCUGCACU	-1.07
CAAGUCCUGUGCUACACAUCGUAUGUACCGAAUCGGGAAAAAAAGGGUGGGAGGGAAAGUAUUAUGUUACGCCGUUCGGAUCUGCACUUC	-0.172
UCCUGUGCUACACAUCGUAUGUACCGAAUCGGGUUUUUUUGGGUUUUUGGGUUUUUGGGAAAGUAUUAUGUUACGCCGUUCGGAUCUGCA	0.759
CACAGACAACACGCACCCACACAGACACAGAGGGAAGGGGUUGGGAUGGGGACAGGGUGCACAGCAGGGCGGGGUAGGACCCCACCCCCU	-0.619
AAGUCCUGUGCUACACAUCGUAUGUACCGAAUCGGGGAAAGGGGAAAGGGGAAAGGAAAGUAUUAUGUUACGCCGUUCGGAUCUGCACUU	0.219
GCAGGAAGUAAAAACAAAUGGAAAUGCUUCAAAUAGUGGCAGGGGUGGGGGUUGCUAAGGAAAGGGUGGGAUGGGAGUGGGUAAAGAGUU	-0.176
GCAGGAAGUAAAAACAAAUGGAAAUGCUUUGGAUAGUGGCAGGGGUGGGGGUUGCUAAGGAAAGGGUGGGAUGGGAGUGGGUAAAGAGUU	0.169
CACAGACAACACGCACCCACACAGACACAGAGGGAAGGGGUUGGUAUGGGGACAGGGUGCACAGCAGGGCGGGGUAGGACCCCAGCCCCU	-1.55

Repeated from above (sample 4):
Strand	E-score
AAGAAGAT	0.153
ACTCTCAC	-0.0516
ATGTCATA	-0.234
GCTAAAGC	0.0584
CTGACGTC	-0.000325
AGGGGGAG	0.0479
ACGTTAAT	-0.00105
GGGACTCA	-0.0944
GAGACTCC	-0.0493
